Published values from different studies.
Compare with care: the assays were run in different laboratories. Values joined by “and” are separate records of one study, mostly repeats; a detail may differ. ± marks the error that the study gave. Converted amounts (≈) assume the structure as drawn.

Cc1cc(C)c(CNC(=O)c2cc(Cl)c3c(c2C)O[C@@](C)([C@H]2CC[C@H](N(C)C)CC2)O3)c(=O)[nH]1 — patients with TEAE (item: Headache; human patients; oral, 200 mg once daily, 1 day onset day 14): 12.5%
CC(C)(C(=O)N1CCOc2c(C#N)cncc2C1)C(F)F — subjects with adverse event (item: contact dermatitis; human; oral, 10 mg once daily, 14 days, multiple ascending dose): 0%
NC(=O)N1c2ccccc2C=Cc2ccccc21 — adverse events incidence (item: dry mouth; human male; oral, dose not given, CTCAE on-treatment AEs): 0%
Nc1nnc(-c2cccc(Cl)c2Cl)c(N)n1 — QRS interval decrease (human, plasma; 15 µg/mL, outliers excluded; baseline: baseline): 5.58 ms
NC1(C(=O)N[C@@H](CCO)c2ccc(Cl)cc2)CCN(c2nc[nH]c3nccc2-3)CC1 — incidence of Dysgeusia (metastatic CRPC patients; 400 mg b.i.d., grade 3 to 4, treatment-related, with: enzalutamide 160 mg daily): 0%
O=C(Nc1nc2cccc(-c3ccc(CN4CCS(=O)(=O)CC4)cc3)n2n1)C1CC1 — treatment-emergent adverse events (item: nausea; human rheumatoid arthritis patients; oral, 75 mg once daily, 4 weeks, regardless of relatedness): 0%
Cc1ccc(Sc2ccccc2N2CCNCC2)c(C)c1 — participants with TEAE (item: metrorrhagia; healthy adult men; oral, 20 mg daily, 12 days): 0%
CNC(=O)c1ccc(-c2cnc3ncc(Cc4ccc5ncccc5c4)n3n2)cc1F — diarrhoea incidence (healthy human subjects; oral, dose not given, all grades, all causality, with: itraconazole; baseline: subjects): 11.1%
CCN1/C(=C/C(C)=O)Sc2ccc(F)cc21 — diastolic blood pressure change (cynomolgus monkey; oral, 10 mg/kg, 1 h post-dose; baseline: pre-dose): 104 ± 8.8%
CN(C(=O)n1cnc(-c2cccnc2)c1)C1CCCCC1 — concentration (Wistar rat, hippocampus; oral, 10 mg/kg of BIA 10-2474, 4 h, single dose): 40.3 ± 5.7 ng/g
CC[C@H](C)CCCCC(=O)N[C@@H](CCN)C(=O)N[C@H](C(=O)N[C@@H](CCN)C(=O)N[C@H]1CCNC(=O)[C@H]([C@@H](C)O)NC(=O)[C@H](CCN)NC(=O)[C@H](CCN)NC(=O)[C@H](CC(C)C)NC(=O)[C@@H](Cc2ccccc2)NC(=O)[C@H](CCN)NC1=O)[C@@H](C)O — terminal elimination rate constant (long-term haemodialysis patients, plasma; IV infusion, 0.75 mg/kg, 1 h infusion, arithmetic mean): 0.0463 h⁻¹
N=C(N)NCCNC(=O)C1(Nc2ccccc2)CCN(Cc2ccccc2)CC1 — mean residence time (male Sprague-Dawley rats, plasma; oral, 50 mg/kg): 0.3 h
CN(C(=O)C(C)(C)c1cc(C(F)(F)F)cc(C(F)(F)F)c1)c1cnc(N2C[C@H]3COCCN3C[C@H]2CO)cc1-c1ccc(F)cc1[14CH3] — radioactivity excreted (healthy men, feces including toilet tissue; oral, 120 mg, 480 h; baseline: dose): 90.4%
C=CCN1CC(=O)N2[C@@H](Cc3ccc(O)cc3F)C(=O)N(Cc3cccc(N4CC(N5CCN(CC)CC5)C4)n3)C[C@@H]2N1C(=O)NCc1ccccc1 — treatment-related adverse events (item: Malaise; advanced solid tumour patients; oral, 120 mg twice daily, expansion part, any grade): 20%
Cc1ccc([C@@H]2O[C@H](CO)[C@@H](O)[C@H](O)[C@H]2O)cc1Cc1ccc(-c2ccc(F)cc2)s1 — urinary sodium excretion change (Japanese type 2 diabetes patients; 400 mg, day 17, 24 h urine collection; baseline: baseline): 3.68 mEq
CNCc1ccc(-c2[nH]c3cc(F)cc4c3c2CCNC4=O)cc1 — cough incidence (patients; oral, 600 mg twice daily, grade 4): 0%
CCc1cc(C(=O)NC)c2nccc(N3CCc4c(cc(Cn5ccnc5)cc4-c4cn(C)nc4C(F)(F)F)C3=O)c2c1 — serum RBC change (Sprague Dawley rats; oral, 50 mg/kg once daily, 7 days; baseline: vehicle): -0.89%
COc1ccc([C@@H](O)c2cc(-c3ncnc4cc(N5CCOCC5)ccc34)c(F)cc2Cl)nn1 — patients with anemia (locally advanced rectal cancer patients; 50 mg, drug-related adverse events, with: capecitabine and radiotherapy): 0%
Cc1ccc(O)c(-n2nc3ccccc3n2)c1 — daily dermal exposure dose (human aged 11-16 years; concentration not given, sunscreen, 95th percentile): 3740 ng/kg/day
O=[N+]([O-])c1cn2c(n1)OC[C@@H](OCc1ccc(N3CCOCC3)cc1)C2 — aqueous solubility (aqueous buffer; pH 7.4): 22.2 µg/mL (≈ 61.6 µM)
CCc1nc(C(N)=O)c(Nc2ccc(N3CCC(N4CCN(C)CC4)CC3)c(OC)c2)nc1NC1CCOCC1 — Cmax (Japanese patients, plasma; oral, 300 mg, cycle 0 day -2, single dose, median): 292 ng/mL
Cc1c(-c2ccc(N3CCc4cccc(C(=O)Nc5nc6ccccc6s5)c4C3)nc2C(=O)O)cnn1CC12CC3(C)CC(C)(C1)CC(OCCNCC[C@H](O)CO)(C3)C2 — plasma concentration (anaesthetized male beagle dog; iv infusion, 0.1 mg/kg/min, 150 min): < 4 ng/mL
O=c1ccc2ccc(O)cc2o1 — scaled intrinsic clearance (human): 465 mL/min/kg
O=C(c1cccnc1-c1ccncc1)N1CCC(O)(Cc2ccccc2)CC1 — terminal half-life (healthy Japanese adults, plasma; oral, 100 mg twice daily, day 1): 359 min
C=CC[C@@H]1/C=C(\C)C[C@H](C)C[C@H](OC)[C@H]2O[C@@](O)(C(=O)C(=O)N3CCCC[C@H]3C(=O)O[C@H](/C(C)=C/[C@@H]3CC[C@@H](O)[C@H](OC)C3)[C@H](C)[C@@H](O)CC1=O)[C@H](C)C[C@@H]2OC — urinary Ca2+ excretion (male Wistar Kyoto rat, 24-hour urine; intraperitoneal, 0.5 mg/kg/day, day 18): 139 ± 39 µmol/day
C[C@H]1CN(C(=O)CC#N)[C@]12CCN(c1ncnc3[nH]ccc13)C2 — subjects with catheter site bruise (healthy human; oral, 3 mg single): 0%
O=C(O)CCCCCCCCCCC(=O)O — relative peak deviation (human, plasma; endogenous control diurnal; baseline: daily mean concentration): 67.9 ± 11.3%
O=C1NCCc2nc(OCc3cccc(F)c3)ccc21 — Irwin test score (item: tail pinch; Sprague-Dawley rat male; oral, 100 mg/kg, 4 h; direction not given): 0
NC[C@@H]1O[C@H](O[C@H]2[C@@H](O)[C@H](O[C@@H]3[C@@H](O)[C@H](N)C[C@H](N)[C@H]3O[C@H]3O[C@H](CO)[C@@H](O)[C@H](O)[C@H]3N)O[C@@H]2CO)[C@H](N)[C@@H](O)[C@@H]1O — body weight (NSG mice; dose not given, day 8 of treatment): 23.3 g and 21.9 g and 20.4 g and 22.9 g
COCC(=O)N1CCC[C@H](C(=O)NCc2nc(-c3ccccc3)cs2)C1 — unbound hepatic CLint (Sprague-Dawley rat, male, plasma; intravenous, 1 mg/kg): 19 mL/min/kg
NCCONC(=O)[C@@H]1CC[C@@H]2CN1C(=O)N2OS(=O)(=O)O — number of Mild TRAE events (healthy Chinese male subjects; intravenous, 2 g): 1
C/C(=N\c1ccc(O)cc1)c1cc2ccccc2n1C — remaining compound (rat plasma; 0.78 ng/mL, time not given, 3 freeze-thaw cycles; baseline: nominal): 102 ± 1.7%
CC1CCN(CCCN2/C(=C/c3cc[n+](C)c4ccccc34)Sc3ccccc32)CC1 — hemolysis (human erythrocytes, 2%; 32 x MIC (S. aureus ATCC 29213), 1 h): < 5%
CC[C@H](C)C(=O)O[C@H]1C[C@@H](C)C=C2C=C[C@H](C)[C@H](CC[C@@H]3C[C@@H](O)CC(=O)O3)[C@H]21 — remaining compound (dog, Beagle, both sexes, whole blood; 5 µM, 15 min): 95.2%
C[C@H](CCC(=O)NCC(=O)O)[C@H]1CC[C@H]2[C@@H]3[C@H](O)C[C@@H]4C[C@H](O[C@@H]5O[C@H](C(=O)O)[C@@H](O)[C@H](O)[C@H]5O)CC[C@]4(C)[C@H]3CC[C@]12C — relative peak deviation (human, plasma; endogenous control diurnal; baseline: daily mean concentration): 129 ± 21%
CC(C)n1c(Nc2cccnc2)nc2cnc(Nc3ccc(N4CCN(C)CC4)cc3)nc21 — adverse event incidence (item: Headache; healthy male subjects; oral, 100 mg, with: itraconazole): 7.1%
CCC(=O)N(CCC(c1ccc2c(c1)OCO2)c1ccccc1OC)Cc1ccccc1 (stereo not drawn) — MCV (female athymic nude mouse, blood; i.p., 60 mg/kg twice daily, 14 days, group mean): 45.8 fL
CC(C)Oc1c(NC(=O)c2ccc(NC(=O)[C@H](CC(N)=O)NC(=O)c3cc(F)c(/N=N/c4c(F)cccc4F)c(F)c3)cc2)ccc(C(=O)N/N=C/c2ccc(C(=O)O)s2)c1O — thermal half-life (absorbance; DMSO; 30 °C, PSS to ground state relaxation): 5.7 h
Cn1cc(Nc2nccc(-c3ccc4c(c3)CN(C3COC3)CC[C@H]4NC(=O)c3cn(C(C)(C)C)nn3)n2)cn1 — transitional B cell count change (human, whole blood; 300 mg twice daily, day 7; baseline: pre-dose baseline): 120%
C=CC(=O)NC1CCN(c2ncc3ncnc(Nc4ccc(Oc5ccc6c(c5)ncn6C)c(C)c4)c3n2)CC1 — participants with nausea (human, male; oral, 240 mg, treatment-related adverse event): 6.3%
CC(C)(C)c1ccc(O)c(CN(Cc2cc(C(C)(C)C)ccc2O)C2CCC(NC(N)=O)CC2)c1 (stereo not drawn) — dose-normalised Cmax (C57BL/6 mice, male, plasma; intraperitoneal, 5 mg/kg, single dose): 228 ng/mL per mg/kg
COc1ccc2c(c1)CN(C(=O)CCN1CCC(Cc3ccccc3)CC1)CC[S@@+]2[O-] — PQ interval (telemetry; conscious male beagle dogs; intravenous, 8 mg/kg, 1 h): 85 ± 8 ms
NC(CO)(CO)CCc1ccc(Sc2cccc(OCc3ccccc3)c2)cc1Cl — pulse rate AUEC, mean (human, supine; oral, 3 mg, 0 to 24 h, alone): 1280 h×bpm
CO[C@@H]1[C@H](OC(=O)N2CC(CCN3CCOCC3)C2)CC[C@]2(CO2)[C@H]1[C@@]1(C)O[C@@H]1CC=C(C)C — D-dimer (humans; subcutaneous, 0.6 mg twice weekly for 4 weeks, day 28; baseline: baseline): -0.03 ± 0.08 mg/dL
CC(C)[C@H](C(=O)Nc1ccc(C(=O)NO)cc1)c1ccccc1 — measured concentration (whole blood; 1000 ng/mL, 5 h, 4 °C, stability on ice): 1050 ng/mL

Excerpt of the above:
CC[C@H](C)CCCCC(=O)N[C@@H](CCN)C(=O)N[C@H](C(=O)N[C@@H](CCN)C(=O)N[C@H]1CCNC(=O)[C@H]([C@@H](C)O)NC(=O)[C@H](CCN)NC(=O)[C@H](CCN)NC(=O)[C@H](CC(C)C)NC(=O)[C@@H](Cc2ccccc2)NC(=O)[C@H](CCN)NC1=O)[C@@H](C)O — terminal elimination rate constant (long-term haemodialysis patients, plasma; IV infusion, 0.75 mg/kg, 1 h infusion, arithmetic mean): 0.0463 h⁻¹
N=C(N)NCCNC(=O)C1(Nc2ccccc2)CCN(Cc2ccccc2)CC1 — mean residence time (male Sprague-Dawley rats, plasma; oral, 50 mg/kg): 0.3 h
CN(C(=O)C(C)(C)c1cc(C(F)(F)F)cc(C(F)(F)F)c1)c1cnc(N2C[C@H]3COCCN3C[C@H]2CO)cc1-c1ccc(F)cc1[14CH3] — radioactivity excreted (healthy men, feces including toilet tissue; oral, 120 mg, 480 h; baseline: dose): 90.4%
C=CCN1CC(=O)N2[C@@H](Cc3ccc(O)cc3F)C(=O)N(Cc3cccc(N4CC(N5CCN(CC)CC5)C4)n3)C[C@@H]2N1C(=O)NCc1ccccc1 — treatment-related adverse events (item: Malaise; advanced solid tumour patients; oral, 120 mg twice daily, expansion part, any grade): 20%
